Assay results pooled from the literature.
Numbered parts are unrelated; each lists some results of a single study. Changes are numbered by the printed parent chain.

Series 1
Target: Fragile X messenger ribonucleoprotein 1, C-terminal low-complexity region (Fmr1, Mus musculus, UniProt P35922)
Method: RNA Bind-n-Seq
Molecule type: RNA
Matrix: in vitro
Concentration: 200 nM
Notes: whole 134-nt RNA, ends assumed
With: 150 mM LiCl
Baseline: input library
Reading: higher = stronger binding
Library: 7-deaza-guanosine replaces G
Shared flanks, not repeated: GGGAGUUCUACAGUCCGACGAUC … UGGAAUUCUCGGGUGUCAAGG
Strand | log2 enrichment
UGGCCCUGGUGGCAUGCGGGGAGGAAGAGGUGGCCUGAUGGAUCGUGGUGGUCCCGGUGGAAUGUUCAGAGGUGGCCGUGGUGGAGACAG | 1.17
GUCCUGUGCUACACAUCGUAUGUACCGAAUCGGGUUUUUUUGGGAAAAAGGGUUUGGGAAAGUAUUAUGUUACGCCGUUCGGAUCUGCAC | -3.07
AAGUCCUGUGCUACACAUCGUAUGUACCGAAUCGGGGUUUGGGUUUGGGGUUUGGGGAAAGUAUUAUGUUACGCCGUUCGGAUCUGCACU | -1.28
UCCUGUGCUACACAUCGUAUGUACCGAAUCGGAAAAAAGGAAAAAAGGGAAAAAAGGGGAAAGUAUUAUGUUACGCCGUUCGGAUCUGCA | -0.976
UGCUAGGACUUGAUGGAUCACUAGUUUUUCUGGUAAGUAAAACUAAUUUUUUUUUUUUUUUUUUGAGACGGAAUCUCACUCUGUCACCCA | 1.71
CACAGACAACACGCACCCACACAGACACAGAGGGAAGGGGUUGGGAUGUGGACAGGGUGCACAGCAGGGCGGGGUAGGACCCCAGCCCCU | -1.83
UGGGAGGUGGAUUUUGCUUAUUUUUUUAGCUCAUUUCCAGGGGUGGGAAUUUUUUUUUAAUAUGUGUCAUGAAUAAAGUUGUUUUUGAAA | -0.449
UCAAGUCCUGUGCUACACAUCGUAUGUACCGAAUCGGAAAGGGAAAGGGGAAAGGAAAGUAUUAUGUUACGCCGUUCGGAUCUGCACUUC | -0.868
UAACUUUAGAGGAGGAUCUGAUGGAUAUGGCAGUGGACGUGGAUUUGGGGAUGGCUAUAAUGAGUAUGGAGGAGGACCUGGAGGUGGCAA | 0.994
UCCUGUGCUACACAUCGUAUGUACCGAAUCGGGGCCCCCGGGCCCCCGGGGCCCCCGGGAAAGUAUUAUGUUACGCCGUUCGGAUCUGCA | -3.22
UUGCCACUCUAAAUUCAGAAGAGGAGAGCGACCCUCCAACCUACAAGGAUGCCUUCCCUCCACUUCCUGAGAAAGCUGCUUGCCUGGAAA | 0.0344

Series 2
Target: Interferon regulatory factor 5, full length, phosphomimetic (IRF5, Homo sapiens, UniProt Q13568-2, residues 1-514, K96S/S451D/S453D/S456D/S462D)
Method: protein-binding microarray
Molecule type: double-stranded DNA, one strand shown
Matrix: in vitro
Concentration: 250 nM
Notes: 60-bp whole probe
With: salmon DNA 0.4 mg/ml
Baseline: random background probes
Reading: higher = stronger binding
Shared flanks, not repeated: GCCTAGCAC … GTCTTGATTCGCTTGACGCTGCTG
Strand | log fluorescence [z-score]
TCAATTTTCTAAATGCCACTGTGCTAG | 1.01
TTAGAACTGGGGACTGGATCAGTGCTA | -0.219
TTAGGTTTCCTTTTCCCTTAGTGCTAG | 1.62
GACAGTTCCCTTTTCCTGACGTGCTAG | 0.333
GACGGTGTCGACTTTCGGGACGTGCTA | 4.4
TTAGGTATCTGGTTTCGGTTAGTGCTA | 8.95
GGAAATATTTACCTCTCACGGTGCTAG | 0.352
GTAGGTTTCGGGTATCGGTTAGTGCTA | 9.4
GACGGACTGGATTATCGGGACGTGCTA | 0.354
GACGGTTTCGGGTTTCTGGACGTGCTA | 7.26
CCCACCATCTAGTTCTGCTTGTGCTAG | 0.00717
GACGATCTCAGTTTGGAGACGTGCTAG | -0.23
GACGATCCCAGTATCGAGACGTGCTAG | 1.74
TTAGGTATCGGGAGTGGGTTAGTGCTA | 1.75
CTTAACCTGGGTCTCTGAAGGTGCTAG | -0.384
GAAATTCTCATTTCCAATTAGTGCTAG | 1.67
TTAGGACTGGTCTTTCGGTTAGTGCTA | 7.31

Series 3
Target: ABI1, truncated, D143A, DHFR fusion (Arabidopsis thaliana)
Method: DHFR PCA, deep sequencing
Matrix: yeast
Notes: methotrexate growth selection, single substitutions
With: (+)-ABA 2500 µM
Baseline: wild-type fitted maximum
Reading: higher = stronger binding
Starting sequence: PYL1, truncated, DHFR fusion (Arabidopsis thaliana); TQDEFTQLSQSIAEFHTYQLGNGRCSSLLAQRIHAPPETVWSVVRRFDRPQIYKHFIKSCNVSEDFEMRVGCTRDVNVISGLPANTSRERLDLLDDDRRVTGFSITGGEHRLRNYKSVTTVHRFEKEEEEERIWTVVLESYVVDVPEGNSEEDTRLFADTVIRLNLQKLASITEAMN; partner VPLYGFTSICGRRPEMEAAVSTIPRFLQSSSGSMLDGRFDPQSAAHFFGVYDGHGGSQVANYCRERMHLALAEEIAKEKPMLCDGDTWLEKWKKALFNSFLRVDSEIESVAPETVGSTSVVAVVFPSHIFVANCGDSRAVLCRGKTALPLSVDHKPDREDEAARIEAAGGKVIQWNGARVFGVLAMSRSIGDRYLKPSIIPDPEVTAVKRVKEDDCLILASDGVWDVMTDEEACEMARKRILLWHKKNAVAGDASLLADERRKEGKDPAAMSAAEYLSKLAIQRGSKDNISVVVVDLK
Substitution | relative binding score
K168H | 93%
N177A | 93%
R46W | 80.8%
R32T | 99.1%
V121H | 12.9%
V121I | 94%
I133K | 95.4%
T106R | 98.5%
F56K | -6.17%
P83A | 93.2%
G108Q | 76.1%
Q31C | 73.9%
K168S | 97.7%
T154S | 84.1%
R123I | 93.8%

Series 4
Target: RNA binding protein fox-1 homolog 2, RRM domain, GST-SBP tag (RBFOX2, Homo sapiens, UniProt O43251-10, residues 100-194)
Method: RNA Bind-n-Seq
Molecule type: RNA
Matrix: in vitro
Concentration: 365 nM
Notes: natural RNA segment, single round, ends assumed
Baseline: no-protein control
Reading: higher = stronger binding
Shared flanks, not repeated: GGGAGUUCUACAGUCCGACGAUC … UGGAAUUCUCGGGUGCCAA
Residues (chain): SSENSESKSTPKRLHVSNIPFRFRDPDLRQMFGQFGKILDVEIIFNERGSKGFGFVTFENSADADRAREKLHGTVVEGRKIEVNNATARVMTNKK
Strand | RBNS enrichment (R)
CCAGCUCCCUGCACCCAGAGGGGGCCUUCUCACCUCUUCUCAGGAAGCAGCUACGACCCAUUGCCCUCCUACCUGCUUCGCUACUGGUCCAUGGUACAGACUGUUCCAGA | 0.472
AACCAACCCCAGGCCCACCCAGAGCGAGCAAACGCUGAGACCUGAAAGGACAUGGAUGAGAAGAGGAGCCCGCUUCCUGUACAUAUAUUUAAGUGACAAACACGGUCAAA | 0.386
UACUUCCUGACUGUGCCAGGGCUUGGGUUCCCCACCACCUCCUCAAUGGAGCAAAGACUCCUGCUAGGCCCUGGUCUCCCUGGGGUUUAUCCCUCCUGGGUCAUGGGAAA | 0.271
AGAUGCCACCUCCCUCUCUCUGAGGCAGGCCUGUGGAUGAAGGAGGAGGGUCAGGGCUGGCCUUCCUCUGUGCAUCACUCUGCUAGGUUGGGGGCCCCCGACCCACCAUA | 0.888
GCUACAUAGCAAGAGCCUGUCUCAAAACAAACGAACCUAUGAAGAGCCAGGCAGUCUAUCUAUUUACAUGGCAGUAUACUAGAGAAACUCAGGAAGCAAGAGUGUUCAUC | 0.718
AGAUAUCUUUCCCAAACUUGGGGUAAAACCCAUGGUUAUGUGGAACAUAACUGUUCUUAAAAAGUCAAUUAUAAUUUGUAACUCACAUCCUUUGAGCUAAACUAAAUUAA | 0.267
UAGUUCGGCGAGGAGACUGGCCACUGGGGGUGGCUGUUCGGGACUGAGAGCGCCAAGGGUCUUUGCCAGCAAAGGAGGUUCUGCCUGUAAUUGAGCCUCUCUGAUGAUGG | 2.66
AUCUUUUUAAAUAGAGAGCUAUGUAUUUUUCAUGUAAUCUGUGAUUUCAAGAAGAUGAUUGGAGUAUAAGGAUUAUCAUUUUGUUAGGUAGAGUUUCUUUUUUUCUUUUU | 0.517
AAAAAGGAAAAAAAAAAGAAAAAGAUCCUGUUACAACCCUCAUCACCUCAAAAACAAGGUUAACAGAGGGGUCAAGUGAGUCUUUUUUUUUUUUUUUUUUUAAAGACAGA | 0.537
CUACAAACUGUUACAACGUCACACAAUGAAGGCACAAAGUCCAACUUUCAAAGGGUGUAGGACUCCAUACUCAGUGACAGGGCAGGAAGAGCCAAAGAUAACCACAGCCA | 0.629
ACAUGGAUUCUGAGAAGUCCAGGGUCUGAAUUGUUGUCUCUGAUUACUGGAAGGACAGGUUAACUGAAUGUCUGUGAUCACUAACAGGUGAUGGGCUUUGUGCCCACUCC | 0.239
AAAACAGCAGCAGUAUUUUCCUUUUCCUAGUGCUAAAAUCCCUUUCCCUAGAAAUUGGCUCACCUUGGGAAACCCAGGGAAAGAAUCAGCAGGUUCUCUGCCCUCCCUAG | 0.463

Series 5
Target: CCNE2, cyclin fold, Cln2 fusion (human)
Method: yeast growth competition, sequencing
Matrix: yeast
Notes: strong parent motif
Baseline: not given
Reading: higher = stronger binding
Starting sequence: CDC25A docking peptide (human); PPHRRRLLFACSP; partner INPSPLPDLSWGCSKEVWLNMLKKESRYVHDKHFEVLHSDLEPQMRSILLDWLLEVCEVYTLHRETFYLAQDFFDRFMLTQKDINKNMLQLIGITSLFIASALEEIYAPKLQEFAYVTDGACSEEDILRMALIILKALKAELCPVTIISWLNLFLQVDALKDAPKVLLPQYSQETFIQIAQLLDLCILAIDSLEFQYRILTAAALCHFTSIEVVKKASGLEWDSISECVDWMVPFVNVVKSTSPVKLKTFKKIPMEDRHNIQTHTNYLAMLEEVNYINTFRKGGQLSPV
Substitution | normalised enrichment score
PPHRRRLLFAVSP [C11V] | 2.25
PPHRRRWLFACSP [L7W] | 1.16
PPHRRRLLFAKSP [C11K] | 1.28
PPHRRRLLFACPP [S12P] | 2.03
PPHRRRLLHACSP [F9H] | 0.865
PPHRERLLFACSP [R5E] | -0.082
QPHRRRLLFACSP [P1Q] | 1.94
PPHRRRALFACSP [L7A] | 0.866
PPHRRRQLFACSP [L7Q] | 0.587
PPHRKRLLLACSP [R5K F9L] | 0.614
PPHRRKLLFACSP [R6K] | 1.87
PPHRTRLLFACSP [R5T] | 0.822
PPHRRRLLFACST [P13T] | 2.52
PPHRRRLLVACSP [F9V] | 0.823
PPHCRRLLFACSP [R4C] | 3.54
PPHRLRLLFACSP [R5L] | 1.73
KPHRRRLLFACSP [P1K] | 2.31
PPHRRRLFFACSP [L8F] | 2.67
PPHRRRLLFAWSP [C11W] | 0.882
